# Published values pooled from the literature.
# Lines come from different studies, so protocols differ. ± marks the error that the study gave.
# UniProt P05177, sequence (whole entry, looked up): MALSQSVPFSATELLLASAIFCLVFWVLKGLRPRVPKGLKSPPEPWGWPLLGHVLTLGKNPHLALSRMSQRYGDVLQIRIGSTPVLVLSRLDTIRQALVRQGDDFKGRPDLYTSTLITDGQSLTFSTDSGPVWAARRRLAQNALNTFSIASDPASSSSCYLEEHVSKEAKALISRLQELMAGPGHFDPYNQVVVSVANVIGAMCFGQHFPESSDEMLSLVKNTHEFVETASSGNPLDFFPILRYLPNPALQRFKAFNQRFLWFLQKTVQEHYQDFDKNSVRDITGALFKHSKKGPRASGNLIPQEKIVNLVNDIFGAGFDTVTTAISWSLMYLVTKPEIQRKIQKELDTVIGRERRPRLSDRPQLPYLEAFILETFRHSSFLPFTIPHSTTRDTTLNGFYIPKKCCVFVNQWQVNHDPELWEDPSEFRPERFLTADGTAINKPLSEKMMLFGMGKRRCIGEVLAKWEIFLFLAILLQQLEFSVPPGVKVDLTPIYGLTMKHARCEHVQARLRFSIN
SMILES,target or system,test,system,conditions,how to read,measurement,value
COc1ccc2c(c1)[C@]13CCCC[C@@H]1[C@H](C2)N(C)CC3,,,"Wistar rat, both sexes, plasma","oral, 5 mg/kg, 2 h after pretreatment, added: single quinidine 2.5 mg/kg",,t1/2,2.55 ± 0.89 h
C[C@H]1CNCCc2ccc(Cl)cc21,,,"Sprague-Dawley rat, male, plasma","subcutaneous, 0.5 mg/kg, 360 min",,plasma concentration,1.2 ± 0.12 ng/mL
CC(C)N(CC(O)COc1cccc2ccccc12)N=O (stereo not shown),"Salmonella typhimurium, Escherichia coli",preincubation Ames test,,"concentration not given, with and without S9",,mutagenicity,positive
[123I]c1cncc(OC[C@@H]2CCN2)c1,,SPECT,"human, brain cortex","intravenous bolus plus infusion, 5.2 mCi",relative to: plasma,tissue/plasma ratio,21.8
CC(C)[C@H](C(=O)O)N(Cc1ccc(-c2ccccc2-c2nn[nH]n2)cc1)N=O,"Salmonella typhimurium, Escherichia coli",preincubation Ames test,,"concentration not given, with and without S9",,mutagenicity,negative
C=C1C[C@@H]2[C@H](CC[C@]3(C)C(=O)CC[C@@H]23)[C@@]2(C)C=CC(=O)C=C12,,LC-MS/MS,"postmenopausal breast cancer women, plasma","oral, 25 mg/day, 2 h, self-reported Black race",,median plasma concentration,5 ng/mL
O[C@H]1CCCN[C@@H]1CCCn1cnc2c(Cl)c(Cl)ccc21,,,"healthy human volunteers, plasma","oral, 25 mg, day 1, multiple ascending dose",,half-life,4.2 h
CC(C)[C@H](NC(=O)[C@H](CC(=O)O)NC(=O)[C@H](Cc1ccc(O)cc1)NC(=O)[C@@H]1CCCN1C(=O)[C@H](Cc1ccc(O)cc1)NC(=O)[C@H](CCCNC(=N)N)NC(=O)CNC(=O)[C@H](CCCNC(=N)N)NC(=O)CNC(=O)[C@H](CCCNC(=N)N)NC(=O)CNC(=O)[C@H](CCCNC(=N)N)NC(=O)CNC(=O)[C@H](CCCNC(=N)N)NC(=O)CNC(=O)[C@H](CCCNC(=N)N)NC(=O)CNC(=O)[C@H](CCCNC(=N)N)NC(=O)CNC(=O)[C@H](CCCNC(=N)N)NC(=O)CNC(=O)[C@H](CCCNC(=N)N)NC(=O)CNC(=O)[C@H](CCCNC(=N)N)NC(=O)CNC(=O)[C@H](CCCNC(=N)N)NC(=O)CNC(=O)[C@H](CCCNC(=N)N)NC(=O)CNC(=O)[C@H](CCCNC(=N)N)NC(=O)CNC(=O)[C@H](CCCNC(=N)N)NC(=O)CNC(=O)[C@H](CCCNC(=N)N)NC(=O)CNC(=O)[C@H](CCCNC(=N)N)NC(=O)CNC(=O)[C@H](CCCNC(=N)N)NC(=O)CNC(=O)[C@H](CCCNC(=N)N)NC(=O)CNC(=O)[C@H](CCCNC(=N)N)NC(=O)CNC(=O)[C@H](CCCNC(=N)N)NC(=O)CN)C(=O)N1CCC[C@H]1C(=O)N[C@@H](CC(=O)O)C(=O)N[C@@H](Cc1ccc(O)cc1)C(=O)N[C@@H](C)C(=O)O,U2OS,dot blot anti-HA,,,,intracellular half-life,0.333 to 0.5 h
CN(CCCC(=O)O)N=O,"Salmonella typhimurium, Escherichia coli",preincubation Ames test,,"concentration not given, with and without S9",,mutagenicity,negative
CNC(=O)O/N=C/C(C)(C)[S+](C)[O-] (stereo not shown),"Cytochrome P450 1A2 (CYP1A2, Homo sapiens, UniProt P05177)",inhibitor,human liver microsomes,"10 µM, pH 7.4, added: phenacetin",,inhibition,< 0%
CC(=O)N[C@H](CCCCNC(=O)C(C)F)C(=O)N[C@@H](CS)C(=O)N[C@@H](CS)C(=O)N[C@@H](CCC(=O)O)C(=O)N[C@@H](Cc1c[nH]cn1)C(=O)N[C@H](Cc1ccccc1)C(=O)N[C@@H](CCCNC(=N)N)C(=O)N[C@@H](Cc1c[nH]c2ccccc12)C(=O)N[C@@H](CS)C(=O)N[C@@H](CCCNC(=N)N)C(=O)N1CCC[C@H]1C(=O)N[C@H](C(N)=O)C(C)C (stereo partly shown) [fluorine-18 labelled],,,"Foxn1 nude mouse, A375M xenograft","intravenous, 2 h",,tumour to blood ratio,3.11 ± 1.3
CCCCN(N=O)c1cc(C(=O)O)cc(S(N)(=O)=O)c1Oc1ccccc1,"Salmonella typhimurium, Escherichia coli",preincubation Ames test,,"concentration not given, with and without S9",,mutagenicity,negative
COc1ccsc1CNCC[C@@]1(c2ccccn2)CCOC2(CCCC2)C1,,,"healthy human, normal hepatic function, plasma","intravenous, 1 mg single dose, geometric mean",,half-life,2.1 h
CN[C@@](C)(C[18F])C(=O)O,DU-145 tumour model,,"host not given, bone","30 min, tumour-bearing",,tracer uptake,2 %ID/g
CN(N=O)C1CCC(c2ccc(Cl)c(Cl)c2)c2ccccc21 (stereo not shown),"Salmonella typhimurium, Escherichia coli",preincubation Ames test,,"concentration not given, with and without S9",,mutagenicity,positive
Cc1ncc2n1-c1ccc(Cl)cc1C(c1ccccc1F)=NC2,,,"healthy men, plasma","oral, 7.5 mg, day 19, geometric mean, added: 7 days post amenamevir",,Cmax,38.8 ng/mL

# A few entries again:
SMILES,target or system,test,system,conditions,how to read,measurement,value
CN(CCCC(=O)O)N=O,"Salmonella typhimurium, Escherichia coli",preincubation Ames test,,"concentration not given, with and without S9",,mutagenicity,negative
CCCCN(N=O)c1cc(C(=O)O)cc(S(N)(=O)=O)c1Oc1ccccc1,"Salmonella typhimurium, Escherichia coli",preincubation Ames test,,"concentration not given, with and without S9",,mutagenicity,negative
